# Results gathered from unrelated publications.
# Protocols differ between the studies behind these lines. ± gives the spread as reported.
# BCHE: Cholinesterase (BCHE, Equus caballus, UniProt P81908)
# Chain of UniProt P81908 (whole entry, looked up): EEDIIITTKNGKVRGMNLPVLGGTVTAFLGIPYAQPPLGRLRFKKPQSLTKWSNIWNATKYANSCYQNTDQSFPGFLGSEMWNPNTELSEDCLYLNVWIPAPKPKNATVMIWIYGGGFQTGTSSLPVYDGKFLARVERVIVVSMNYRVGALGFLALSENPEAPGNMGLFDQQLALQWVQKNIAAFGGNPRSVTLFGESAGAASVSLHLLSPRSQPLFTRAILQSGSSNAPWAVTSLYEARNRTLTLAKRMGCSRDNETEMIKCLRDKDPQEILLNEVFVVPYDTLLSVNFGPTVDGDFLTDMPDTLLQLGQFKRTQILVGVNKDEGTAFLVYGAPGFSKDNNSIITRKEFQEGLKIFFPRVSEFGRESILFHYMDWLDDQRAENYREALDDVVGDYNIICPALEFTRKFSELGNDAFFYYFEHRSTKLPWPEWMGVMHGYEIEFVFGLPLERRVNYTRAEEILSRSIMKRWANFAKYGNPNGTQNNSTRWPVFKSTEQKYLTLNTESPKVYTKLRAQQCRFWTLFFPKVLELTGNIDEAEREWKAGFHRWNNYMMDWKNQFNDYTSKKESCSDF
# Chain of UniProt P46663 (whole entry, looked up): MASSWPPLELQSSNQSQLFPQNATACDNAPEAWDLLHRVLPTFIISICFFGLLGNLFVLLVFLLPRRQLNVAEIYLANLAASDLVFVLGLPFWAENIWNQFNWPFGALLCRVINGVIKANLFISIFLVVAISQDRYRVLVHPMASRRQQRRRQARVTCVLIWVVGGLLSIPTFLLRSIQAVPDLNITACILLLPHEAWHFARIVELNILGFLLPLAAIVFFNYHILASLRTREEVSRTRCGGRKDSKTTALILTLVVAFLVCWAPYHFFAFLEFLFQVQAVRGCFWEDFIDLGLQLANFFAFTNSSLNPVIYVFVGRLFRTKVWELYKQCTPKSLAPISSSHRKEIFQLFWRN
# Chain of UniProt Q9UGN5 (whole entry, looked up): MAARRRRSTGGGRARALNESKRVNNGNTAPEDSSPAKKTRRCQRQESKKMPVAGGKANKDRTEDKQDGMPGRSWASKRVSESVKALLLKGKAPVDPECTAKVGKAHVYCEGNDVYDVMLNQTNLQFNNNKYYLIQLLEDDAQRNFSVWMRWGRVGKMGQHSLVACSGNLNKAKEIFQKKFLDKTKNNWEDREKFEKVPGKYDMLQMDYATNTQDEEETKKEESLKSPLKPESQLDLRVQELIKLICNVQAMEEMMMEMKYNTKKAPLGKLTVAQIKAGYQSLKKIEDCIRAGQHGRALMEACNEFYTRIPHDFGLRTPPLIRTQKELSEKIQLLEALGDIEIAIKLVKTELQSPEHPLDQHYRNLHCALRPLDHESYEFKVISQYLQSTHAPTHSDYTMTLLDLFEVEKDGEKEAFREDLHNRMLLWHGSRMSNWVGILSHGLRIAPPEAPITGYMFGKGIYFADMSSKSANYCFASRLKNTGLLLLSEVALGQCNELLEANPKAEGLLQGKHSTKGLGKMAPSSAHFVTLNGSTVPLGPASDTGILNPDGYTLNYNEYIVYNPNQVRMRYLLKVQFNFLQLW
# Chain of UniProt P21917 (whole entry, looked up): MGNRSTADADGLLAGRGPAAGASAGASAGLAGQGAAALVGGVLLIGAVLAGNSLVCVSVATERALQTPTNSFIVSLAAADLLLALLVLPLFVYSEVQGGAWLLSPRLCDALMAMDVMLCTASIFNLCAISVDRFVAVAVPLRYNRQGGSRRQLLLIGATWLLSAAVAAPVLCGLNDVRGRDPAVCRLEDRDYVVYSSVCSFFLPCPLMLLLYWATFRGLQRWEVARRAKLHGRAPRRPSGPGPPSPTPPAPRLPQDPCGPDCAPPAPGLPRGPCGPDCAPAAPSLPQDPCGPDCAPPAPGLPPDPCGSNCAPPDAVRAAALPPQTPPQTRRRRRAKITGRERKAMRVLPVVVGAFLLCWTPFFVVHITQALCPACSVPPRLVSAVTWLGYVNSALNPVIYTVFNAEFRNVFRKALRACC
# Chain of UniProt P08173 (whole entry, looked up): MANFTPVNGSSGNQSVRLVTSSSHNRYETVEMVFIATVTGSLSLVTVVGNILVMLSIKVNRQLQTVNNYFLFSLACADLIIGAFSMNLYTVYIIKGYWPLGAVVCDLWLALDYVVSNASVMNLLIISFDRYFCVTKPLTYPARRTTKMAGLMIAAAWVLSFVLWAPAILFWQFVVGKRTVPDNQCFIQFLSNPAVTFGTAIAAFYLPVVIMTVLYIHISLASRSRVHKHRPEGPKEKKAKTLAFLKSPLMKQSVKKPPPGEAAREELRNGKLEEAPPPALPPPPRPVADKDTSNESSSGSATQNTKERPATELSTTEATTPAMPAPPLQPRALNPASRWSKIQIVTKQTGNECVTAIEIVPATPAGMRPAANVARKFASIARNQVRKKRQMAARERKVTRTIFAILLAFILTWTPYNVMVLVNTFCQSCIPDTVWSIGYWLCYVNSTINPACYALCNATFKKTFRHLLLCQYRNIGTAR
# Chain of UniProt Q8TD19 (whole entry, looked up): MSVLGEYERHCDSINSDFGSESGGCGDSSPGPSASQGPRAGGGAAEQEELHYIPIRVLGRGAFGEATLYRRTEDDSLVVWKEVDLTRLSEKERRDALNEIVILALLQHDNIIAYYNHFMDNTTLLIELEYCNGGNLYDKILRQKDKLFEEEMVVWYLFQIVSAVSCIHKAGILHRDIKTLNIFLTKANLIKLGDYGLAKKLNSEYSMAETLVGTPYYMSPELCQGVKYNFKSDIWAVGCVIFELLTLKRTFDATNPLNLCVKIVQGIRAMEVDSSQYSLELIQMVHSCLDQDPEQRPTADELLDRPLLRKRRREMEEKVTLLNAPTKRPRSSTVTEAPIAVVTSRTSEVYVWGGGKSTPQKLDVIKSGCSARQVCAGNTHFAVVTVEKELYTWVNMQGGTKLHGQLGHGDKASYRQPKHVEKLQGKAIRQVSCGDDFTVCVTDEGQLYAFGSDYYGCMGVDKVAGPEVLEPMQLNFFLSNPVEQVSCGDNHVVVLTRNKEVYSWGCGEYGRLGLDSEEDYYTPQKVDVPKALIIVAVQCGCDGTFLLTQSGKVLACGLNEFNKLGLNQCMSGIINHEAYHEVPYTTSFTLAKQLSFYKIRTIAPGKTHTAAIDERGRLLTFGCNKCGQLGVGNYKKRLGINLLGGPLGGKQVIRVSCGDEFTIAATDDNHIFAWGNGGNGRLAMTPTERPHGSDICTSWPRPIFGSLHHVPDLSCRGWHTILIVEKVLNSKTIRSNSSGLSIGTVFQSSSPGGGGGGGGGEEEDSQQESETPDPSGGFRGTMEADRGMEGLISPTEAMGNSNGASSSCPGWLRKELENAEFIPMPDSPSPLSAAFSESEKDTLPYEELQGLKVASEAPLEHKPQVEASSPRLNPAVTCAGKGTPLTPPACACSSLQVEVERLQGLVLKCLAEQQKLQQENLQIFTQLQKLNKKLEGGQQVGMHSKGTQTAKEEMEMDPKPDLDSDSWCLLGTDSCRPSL
# Chain of UniProt Q9ULW8 (whole entry, looked up): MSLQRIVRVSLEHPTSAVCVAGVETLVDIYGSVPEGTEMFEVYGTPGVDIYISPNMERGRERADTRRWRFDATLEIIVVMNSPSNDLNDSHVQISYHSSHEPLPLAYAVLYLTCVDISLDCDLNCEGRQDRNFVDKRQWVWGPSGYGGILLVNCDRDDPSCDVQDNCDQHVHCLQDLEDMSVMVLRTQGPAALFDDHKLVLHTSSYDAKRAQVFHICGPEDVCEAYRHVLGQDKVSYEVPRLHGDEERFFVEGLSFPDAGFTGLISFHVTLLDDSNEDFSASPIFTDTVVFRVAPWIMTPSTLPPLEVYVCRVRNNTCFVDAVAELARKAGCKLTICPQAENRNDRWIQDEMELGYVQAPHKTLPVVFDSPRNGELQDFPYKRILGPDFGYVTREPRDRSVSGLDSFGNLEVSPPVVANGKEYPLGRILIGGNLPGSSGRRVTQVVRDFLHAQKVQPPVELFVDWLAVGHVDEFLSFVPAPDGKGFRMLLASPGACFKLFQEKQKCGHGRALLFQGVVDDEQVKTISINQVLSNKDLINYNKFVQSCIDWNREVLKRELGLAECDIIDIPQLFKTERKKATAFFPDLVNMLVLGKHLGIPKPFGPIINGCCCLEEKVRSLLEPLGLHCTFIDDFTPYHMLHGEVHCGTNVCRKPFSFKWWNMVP
# Chain of UniProt P18089 (whole entry, looked up): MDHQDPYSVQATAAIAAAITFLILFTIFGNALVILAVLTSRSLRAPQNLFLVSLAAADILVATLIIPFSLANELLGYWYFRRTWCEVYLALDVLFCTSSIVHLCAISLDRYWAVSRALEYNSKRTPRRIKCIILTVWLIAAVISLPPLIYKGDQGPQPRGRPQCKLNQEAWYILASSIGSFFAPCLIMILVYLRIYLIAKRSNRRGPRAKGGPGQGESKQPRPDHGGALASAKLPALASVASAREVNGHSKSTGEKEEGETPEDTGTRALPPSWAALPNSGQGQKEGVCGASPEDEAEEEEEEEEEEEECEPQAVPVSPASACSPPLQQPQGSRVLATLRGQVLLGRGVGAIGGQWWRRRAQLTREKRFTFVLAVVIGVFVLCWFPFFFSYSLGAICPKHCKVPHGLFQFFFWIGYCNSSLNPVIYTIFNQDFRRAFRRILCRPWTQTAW
# Chain of UniProt Q13572 (whole entry, looked up): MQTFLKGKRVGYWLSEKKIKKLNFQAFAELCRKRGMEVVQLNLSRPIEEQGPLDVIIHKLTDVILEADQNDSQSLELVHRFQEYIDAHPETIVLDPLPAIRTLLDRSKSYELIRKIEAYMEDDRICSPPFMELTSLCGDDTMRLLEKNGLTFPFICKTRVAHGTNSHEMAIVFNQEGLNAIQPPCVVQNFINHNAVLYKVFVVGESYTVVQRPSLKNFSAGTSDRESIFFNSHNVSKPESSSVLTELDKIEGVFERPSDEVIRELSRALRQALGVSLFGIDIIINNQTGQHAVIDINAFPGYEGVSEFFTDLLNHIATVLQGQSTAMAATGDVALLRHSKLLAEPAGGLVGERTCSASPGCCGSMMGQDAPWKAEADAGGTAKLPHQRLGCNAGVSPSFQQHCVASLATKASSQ
Structure (SMILES),target,assay,system,setting,inhibition [%]
CCC1CC(c2ccc(C(=O)O)cc2C)=NN1c1ccc(C#N)c(Cl)c1 (centres unmarked),"DNMT1 (Homo sapiens, UniProt P26358)","enzyme activity, inhibitor",,10 µM,17
CC(C)[C@H]1NC(=O)C[C@H]2/C=C/CCSSC[C@@H](NC1=O)C(=O)N[C@H](Cc1cccc3ccccc13)C(=O)NCC(=O)O2,"NEK9 (Homo sapiens, UniProt Q8TD19)","enzyme activity, inhibitor",,10 µM,0.428
COc1ccc(F)cc1S(=O)(=O)Nc1cnc2c(c1)C(=O)NCCO2,"CHRM4 (Homo sapiens, UniProt P08173)","ligand displacement, radioligand",,10 µM,3
N[C@H](C(=O)N1CCCC1)C1CCN(c2nccc3c(-c4ncc(Cl)cc4Cl)cccc23)CC1,"PADI3 (Homo sapiens, UniProt Q9ULW8)","enzyme activity, inhibitor",,0.2458 µM,69
Cc1ccc2c(n1)c(-c1cccc(S(C)(=O)=O)c1)c(C)n2C/C(F)=C/CN,"ADRA2B (Homo sapiens, UniProt P18089)",off-target safety screen,,10 µM,25
C[C@H](NCc1ccc(-c2ccc(C(F)(F)F)cc2)cc1)C(N)=O,"adenosine transporter, guinea pig","binding, radioligand binding",biochemical,"1 µM, added: [3H]nitrobenzylthioinosine 0.50 nM",5
CCN(CC)CCOc1ccc(-c2nnn(Cc3ccc(OC)cc3)c2N)cc1,NMDA receptor (rat),radioligand binding,cerebral cortex,"10 µM, added: 10000 nM radioligand",-16.5
CS(C)(=O)=Nc1ccc(-c2ccc(-c3nc4cc(O[C@@H]5CO[C@H]6[C@@H]5OC[C@H]6O)[nH]c4cc3F)cc2)cc1,L-type Ca2+ channel dihydropyridine site,binding,,10 µM,1
CN[C@@H]1[C@H](O)[C@H](NC)[C@H]2O[C@]3(O)[C@H](O[C@@H]2[C@H]1O)O[C@H](C)C[C@H]3NC(=O)Cc1ccc(Cl)cn1,"BDKRB1 (Homo sapiens, UniProt P46663)","ligand displacement, radioligand",,10 µM,0
Cc1cc(-c2ccc3ccccc3c2)nnc1NCCN1CCN(C)CC1,"Slc6a2 (Rattus norvegicus, UniProt Q9WTR4)","monoamine uptake, inhibitor",rat synaptosomes,10000 nM,5.4
O=[N+]([O-])c1cccc(Cn2cc(CCS(=O)(=O)F)nn2)c1,BCHE,"enzyme activity, inhibitor, Ellman",,20 µM,38.1
CN(C)[C@H]1C[C@@]23CC[C@@]4(O2)C(=CC[C@]2(C)[C@@H](c5ccc6ccncc6c5)CC[C@H]24)C=C3[C@@H](O)[C@@H]1O,"Inositol-tetrakisphosphate 1-kinase (Homo sapiens, UniProt Q13572)","ATP probe labelling, inhibitor, KiNativ profiling",,1 µM,12
COc1ccccc1N1CCN(CCCCN2CCCc3ccccc3C2=O)CC1,"DRD4 (Homo sapiens, UniProt P21917)",radioligand binding,,"concentration not given, added: [3H]N-methylspiperone",100
O=S(=O)(F)CCc1cn(-c2c(F)cccc2F)nn1,BCHE,"enzyme activity, inhibitor, Ellman's method",horse serum BuChE,20 µM,18.1 ± 2.2
O=C(O)c1ccccc1/C=N/Nc1nc(-c2ccccc2Cl)cs1,"GSK3A (Homo sapiens, UniProt P49840)","enzyme activity, inhibitor",,1 µM,-1.54
Cc1cc(OCC(=O)NCCNC(=O)c2cccc(COc3ccccc3C(N)=O)c2)c2c3c(c(=O)oc2c1)CCC3,"PARP2 (Homo sapiens, UniProt Q9UGN5)","enzyme activity, inhibitor",,5 nM,8
NCCc1ccccn1,BCHE,"enzyme activity, inhibitor, Ellman",,20 µM,37.2
CC(=O)NC[C@@H]1[C@@H](O)C[C@H]2[C@H](O)C[C@@H](CO)N12,Spodoptera litura β-N-acetylglucosaminidase,,crude enzyme,"0.428 µM, run 1, added: p-nitrophenyl GlcNAc",47.6
CN(/N=C/c1ccccc1C(=O)O)c1nc(-c2ccccc2Cl)cs1,"Cyclin-dependent kinase 1, with cyclin E1 (CDK1, Homo sapiens, UniProt P06493)","enzyme activity, inhibitor",,1 µM,-13.9
O=C(CN1CN(c2ccccc2)C2(CCN(C(=O)c3cnc4[nH]ncc4c3)CC2)C1=O)NCC(F)(F)F,"MET (Homo sapiens, UniProt P08581, Y1235D)",inhibitor,,concentration not given,< 50

# A few entries again:
Structure (SMILES),target,assay,system,setting,inhibition [%]
CCC1CC(c2ccc(C(=O)O)cc2C)=NN1c1ccc(C#N)c(Cl)c1 (centres unmarked),"DNMT1 (Homo sapiens, UniProt P26358)","enzyme activity, inhibitor",,10 µM,17
COc1ccc(F)cc1S(=O)(=O)Nc1cnc2c(c1)C(=O)NCCO2,"CHRM4 (Homo sapiens, UniProt P08173)","ligand displacement, radioligand",,10 µM,3
